Measured values from different studies.
Lines come from different studies, so protocols differ. “And” joins repeats or separate records; there may be more than shown. Numbers after ± are the reported error.
UniProt P54760, sequence (whole entry, looked up): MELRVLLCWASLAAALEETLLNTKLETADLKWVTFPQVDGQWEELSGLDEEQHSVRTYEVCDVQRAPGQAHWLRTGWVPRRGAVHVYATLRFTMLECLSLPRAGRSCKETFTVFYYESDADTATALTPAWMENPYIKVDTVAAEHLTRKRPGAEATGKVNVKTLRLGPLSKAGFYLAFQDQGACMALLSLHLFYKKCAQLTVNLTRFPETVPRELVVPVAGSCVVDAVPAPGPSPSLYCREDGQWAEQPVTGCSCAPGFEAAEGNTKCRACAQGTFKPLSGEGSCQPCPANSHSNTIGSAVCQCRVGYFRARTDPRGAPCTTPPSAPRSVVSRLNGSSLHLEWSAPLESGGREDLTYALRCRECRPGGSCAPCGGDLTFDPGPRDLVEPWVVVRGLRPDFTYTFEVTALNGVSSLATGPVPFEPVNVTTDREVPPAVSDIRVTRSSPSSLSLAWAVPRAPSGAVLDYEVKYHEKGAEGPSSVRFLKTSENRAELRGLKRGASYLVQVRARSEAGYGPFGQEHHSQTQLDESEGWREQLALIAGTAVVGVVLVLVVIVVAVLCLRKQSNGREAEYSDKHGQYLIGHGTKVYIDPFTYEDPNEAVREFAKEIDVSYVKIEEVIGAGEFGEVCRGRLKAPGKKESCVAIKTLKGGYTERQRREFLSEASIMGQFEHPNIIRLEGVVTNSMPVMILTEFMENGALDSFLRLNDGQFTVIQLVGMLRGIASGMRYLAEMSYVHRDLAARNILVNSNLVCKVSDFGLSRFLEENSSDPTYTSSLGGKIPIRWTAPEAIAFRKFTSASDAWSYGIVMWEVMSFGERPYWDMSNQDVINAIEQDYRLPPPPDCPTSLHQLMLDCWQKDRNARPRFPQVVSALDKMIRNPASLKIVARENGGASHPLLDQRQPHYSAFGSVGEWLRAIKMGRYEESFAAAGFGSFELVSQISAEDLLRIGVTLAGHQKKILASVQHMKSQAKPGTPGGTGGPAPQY

C=CC(=O)Nc1cc(Nc2nccc(-c3cn(C)c4ccccc34)n2)c(OC)cc1N(C)CCNC  remaining compound (human, plasma; 270 ng/mL, 30 d, on ice, high QC level): 50%
O=C(O)CCCOc1ccc([18F])cc1-c1cc(-c2ccccc2C(F)(F)F)n(-c2ccccc2)n1  tissue uptake (mouse, large intestine; intravenous, dose not given, 15 min): 0.56 ± 0.08 %ID/g
C=C(NC(=O)c1csc(-c2nc3c(cc2O)-c2nc(cs2)C(=O)NC(C(C)O)C(=O)NC(=C(C)OC)c2nc(cs2)C(=O)NC2c4nc(cs4)C(=O)NC(COC(=O)c4c5c6c(cccc6n4O)COC(=O)C(OC4CC(C)(O)C(N(C)C)C(C)O4)C2OC5)c2nc-3cs2)n1)C(N)=O (stereo not drawn)  half-life (ICR mice, Streptococcus pneumoniae ATCC 49169 infected, immunocompromised, blood; intravenous, 4 mg/kg/day once daily): 2.1 h
O=C(NS(=O)(=O)c1cccs1)c1cc2ccccc2n1Cc1ccc(Br)c2ccccc12  MRT(0-last) (mouse, plasma; oral, 1 mg/kg): 0.9 h
COC1CN([C@H]2CC[C@H]([C@@]3(C)Oc4c(Cl)cc(C(=O)NCc5c(SC)cc(C)[nH]c5=O)c(C)c4O3)CC2)C1  log2 fold change (RNA-seq, item: APBB2 mouse homolog; mouse, HT-1376 xenograft, whole blood; dose not given; relative to: vehicle): 1.37
O=C(Nc1cnccc1-c1ccc([18F])cc1)c1ccnc(NC(=O)C2CC2)c1  mean SUV (ex vivo gamma counting; FVB/NJ mice, both sexes, left kidney; intravenous, 120 min): 0.55
Cc1nn(-c2cccc(N)c2)c(=O)c2cnc(Nc3ccc(N4CCNCC4)cc3)nc12  IC50 (Ephrin type-B receptor 4 (EPHB4, Homo sapiens, UniProt P54760); kinase activity, inhibitor, SelectScreen kinase profiling): 1970 nM
CC[C@H](C)[C@H](NC(=O)[C@H](CCCCN)NC(C)=O)C(=O)N[C@@H](C)C(=O)N[C@@H](C)C(=O)N[C@@H](CC(C)C)C(=O)N[C@@H](CCCCN)C(=O)N[C@@H](CCC(=O)O)C(=O)N[C@@H](CCCCN)C(=O)N[C@H](C(=O)N[C@@H](C)C(=O)N[C@@H](C)C(=O)N[C@@H](CC(C)C)C(=O)N[C@@H](CCCCN)C(=O)N[C@@H](CCC(=O)O)C(=O)N[C@@H](CCCCN)C(=O)N[C@H](C(=O)N[C@H]1CSCc2ccccc2CSC[C@@H](C(=O)NCC(=O)N[C@@H](Cc2c[nH]c3ccccc23)C(N)=O)NC(=O)[C@H](CCCCN)NC(=O)[C@H](CC(C)C)NC(=O)[C@H](C)NC1=O)[C@@H](C)CC)[C@@H](C)CC  helicity (circular dichroism at 222 nm; PBS; pH 7.4, 20 °C, single peptide 50 µM total): 75%
Cc1ccc(CN2C(=O)/C(=N\c3ccc(Cl)cc3Br)c3ccccc32)cc1  MCV (mouse, blood; 200 mg/kg): 46.73 ± 0.42 fL
C=CC(=O)Nc1cccc(Cn2ncc3cnc(Nc4cnn(CCOC)c4)nc32)c1  percent of control (GAK human; binding, KINOMEscan; 100 nM; lower = stronger binding): 95%
COc1cccc(OC)c1-c1cc(C(=O)NC2(C(=O)O)C3CC4CC(C3)CC2C4)nn1-c1ccc(C(=O)N(C)CCOCCN(C)C(=O)[C@H](CCCCNC(=O)[C@H](CC(C)C)NC(=O)C2OC2C(=O)O)NC(=O)CN2CCN(CC(=O)[O-])CCN(CC(=O)[O-])CCN(CC(=O)[O-])CC2)cc1C(C)C.[177Lu+3] (mixture of isomers)  tissue uptake (mouse HT-29 xenograft, small intestine; 72 h post injection, biodistribution): 0.117 %ID/g
CC(C)OCCOCc1ccc(OCC(O)CN(N=O)C(C)C)cc1 (stereo not drawn)  revertant fold increase (Salmonella typhimurium; Ames test; TA1537; 50 µg/plate, without metabolic activation; relative to: solvent control): 0.7 fold
CN1CCCNC(=O)c2cccc(c2)C(=O)NCCCN(C)CCCNc2cccc3c2C(=O)c2cccc(c2C3=O)NCCC1  log2 fold change (SAS; RNA-Seq, item: VRK2 mRNA; 1 µM, 6 h; relative to: untreated cells): -0.81
O=c1c(O)c(-c2ccc(N(c3ccccc3)c3ccccc3)cc2)oc2cc3ccccc3cc12  CO release quantum yield (DMSO): ~0.6%
C=C[C@]1(C)C[C@@H](OC(=O)CSc2ccc(NC(=O)c3ccco3)cc2)[C@]2(C)[C@H](C)CC[C@]3(CCC(=O)[C@H]32)[C@@H](C)[C@@H]1O  plasma concentration (Mycoplasma gallisepticum-infected chickens, plasma; intramuscular, 80 mg/kg, 12 h): 49.7 ng/mL and 106 ng/mL and 76.6 ng/mL and 155 ng/mL and 76.5 ng/mL and 72.9 ng/mL and 139 ng/mL and 117 ng/mL
Cc1ncsc1-c1ccc(C(C)NC(=O)C2CC(O)CN2C(=O)C(NC(=O)CCCCCCCCCCN2CCCC(Nc3ncc(Cl)c(Nc4ccccc4S(=O)(=O)C(C)C)n3)C2)C(C)(C)C)cc1 (stereo not drawn)  log2 fold change (22Rv1; RNA-seq, item: USP46-AS1; concentration not given; relative to: DMSO): -1.31
Cc1nc(C)c(-c2ccnc(Nc3cccc(C#N)c3)n2)s1  logP (octanol/buffer; pH 11): 3.89
CNCc1ccc(-c2cc(=O)c3ccc4[nH]c(C(F)(F)F)nc4c3o2)cc1  AUC (ICR mice, plasma; intravenous, 2 mg/kg): 2320 ng·h/mL

A few entries again:
C=C[C@]1(C)C[C@@H](OC(=O)CSc2ccc(NC(=O)c3ccco3)cc2)[C@]2(C)[C@H](C)CC[C@]3(CCC(=O)[C@H]32)[C@@H](C)[C@@H]1O  plasma concentration (Mycoplasma gallisepticum-infected chickens, plasma; intramuscular, 80 mg/kg, 12 h): 49.7 ng/mL and 106 ng/mL and 76.6 ng/mL and 155 ng/mL and 76.5 ng/mL and 72.9 ng/mL and 139 ng/mL and 117 ng/mL
Cc1ncsc1-c1ccc(C(C)NC(=O)C2CC(O)CN2C(=O)C(NC(=O)CCCCCCCCCCN2CCCC(Nc3ncc(Cl)c(Nc4ccccc4S(=O)(=O)C(C)C)n3)C2)C(C)(C)C)cc1 (stereo not drawn)  log2 fold change (22Rv1; RNA-seq, item: USP46-AS1; concentration not given; relative to: DMSO): -1.31
